Assay results collected from several papers.
Compare with care: the assays were run in different laboratories.
Target: Mitogen-activated protein kinase kinase kinase 6 (MAP3K6, Homo sapiens, UniProt O95382)

SMILES | assay | system | setting | scale | endpoint | result
C=CC(=O)Nc1cc(-c2nn(C3CCN(CCNC(=O)[C@H](C)CCC45CC6CC(CC(C6)C4)C5)CC3)c3ncnc(N)c23)ccc1Oc1ccccc1 | inhibitor, KiNativ profiling | biochemical | 2 µM | – | inhibition | 20.8%
CCN1CCN(Cc2ccc(C(=O)Nc3ccc(C)c(NCc4cnc5[nH]ccc5c4OC)c3)cc2C(F)(F)F)CC1 | binding, competition with immobilised ligand | – | 1 µM | – | remaining binding | 16%
Nc1ncc2c(n1)-c1c([nH]c3ccc(C4=CCOCC4)cc13)CCC2 | binding, competition with immobilised ligand | – | 1 µM | – | remaining binding | 98%
CNC(=O)C1CCN(c2cc(C)c(F)cc2NC(=O)c2ccc(-c3cc(O)ccc3C)c(C)c2)CC1 | binding, competition with immobilised ligand | – | 1 µM | – | remaining binding | 92%
COc1c(Cl)cccc1Nc1c(-c2ccncc2C#C[C@@]2(C)CCCN2C(=O)/C=C/CN(C)C)[nH]c2c1C(=O)NCC2 | binding, competition with immobilised ligand | – | 3 µM | – | remaining binding | 71%
COc1cc(Nc2nccc(-c3cnn4nc(OC)ccc34)n2)cc(C(F)(F)F)c1 | binding, competition with immobilised ligand | – | 1 µM | – | remaining binding | 100%
CCn1cc(C(=O)O)c(=O)c2c(N)c(F)c(NC3CCCCC3)cc21 | kinase activity | – | 0.1 µM, with: ATP at Km | – | inhibition | -4.4%
Cc1ccc(-c2c(/C=C(\C#N)C(=O)NC(C)C)n(CCCO)c3ncnc(N)c23)cc1 | cell-free assay, competition with immobilised ligand | – | 1 µM | – | remaining binding | 87%
COc1cc(Nc2nc(C)cc(-c3cnn4nc(OC)ccc34)n2)cc(C(F)(F)F)c1 | inhibitor | – | 1 µM, ASK2 | reference: control | remaining activity | 66%
C=CC(=O)N1CCCC(n2c(=O)c3ncccc3n(Cc3ccc(Oc4ccccc4)cc3)c2=O)C1 (stereo not drawn) | cell-free assay, competition with immobilised ligand | – | 1 µM | – | remaining binding | 80%
CNC1C[S+]2CC[S+]3CC[S+](C1)[Ru-4]321([N]=C=S)[n]2c3ccc(OC)cc3c3c4c(c5cc(F)c[n+]1c5c32)C(=O)NC4=O (stereo not drawn) | KinomeScan | – | 0.1 µM | reference: untreated | remaining binding | 88%
CC(C)=CC1OC(C)(C)C2C=C3C(=O)C(Cl)=CC(O)C3C3C(O)C4OC4C(=O)C132 (stereo not drawn) | cell-free assay, competition with immobilised ligand | – | 10 µM | – | remaining binding | 93%
C=CC(=O)N1CCc2ccc(-n3c(=O)ccc4cnc5ccc(-c6cnn(C)c6)cc5c43)cc21 | KINOMEscan | – | 1 µM | reference: DMSO control | remaining binding | 100%
Cc1cnc2nc1Nc1cccc(c1)COC/C=C/COCc1cc(ccc1OCCN1CCOCC1)N2 | binding, competition with immobilised ligand | – | 0.1 µM | – | remaining binding | 71%
Nc1ncc(-c2cc(-c3cnn(CC(F)(F)F)c3)ncc2F)nc1C(=O)NC1CNCC(F)C1 (stereo not drawn) | enzyme activity | – | 1 µM | reference: DMSO control | remaining activity | 99.4%

A few entries again:
SMILES | assay | system | setting | scale | endpoint | result
CNC1C[S+]2CC[S+]3CC[S+](C1)[Ru-4]321([N]=C=S)[n]2c3ccc(OC)cc3c3c4c(c5cc(F)c[n+]1c5c32)C(=O)NC4=O (stereo not drawn) | KinomeScan | – | 0.1 µM | reference: untreated | remaining binding | 88%
Cc1cnc2nc1Nc1cccc(c1)COC/C=C/COCc1cc(ccc1OCCN1CCOCC1)N2 | binding, competition with immobilised ligand | – | 0.1 µM | – | remaining binding | 71%
